Measurements from different studies.
Lines come from different studies, so protocols differ. Numbers after ± are the reported error.
PTPN1: Tyrosine-protein phosphatase non-receptor type 1 (PTPN1, Homo sapiens, UniProt P18031)

The chains behind the UniProt entries cited, without tags or fusion partners. Where a name states a change or a piece, a line headed by the entry shows the natural chain unless it says otherwise. Residues count along the entry.
UniProt P18031, 1-321 limits assumed: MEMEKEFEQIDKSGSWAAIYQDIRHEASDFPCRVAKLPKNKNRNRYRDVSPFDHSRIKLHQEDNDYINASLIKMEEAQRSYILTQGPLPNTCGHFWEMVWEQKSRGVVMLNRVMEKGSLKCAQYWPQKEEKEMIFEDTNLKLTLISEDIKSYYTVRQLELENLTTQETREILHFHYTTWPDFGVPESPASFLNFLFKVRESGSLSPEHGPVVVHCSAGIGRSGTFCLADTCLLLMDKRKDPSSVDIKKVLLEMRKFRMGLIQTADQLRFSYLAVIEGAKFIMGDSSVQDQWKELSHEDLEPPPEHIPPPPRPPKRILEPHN
UniProt P06855, whole entry: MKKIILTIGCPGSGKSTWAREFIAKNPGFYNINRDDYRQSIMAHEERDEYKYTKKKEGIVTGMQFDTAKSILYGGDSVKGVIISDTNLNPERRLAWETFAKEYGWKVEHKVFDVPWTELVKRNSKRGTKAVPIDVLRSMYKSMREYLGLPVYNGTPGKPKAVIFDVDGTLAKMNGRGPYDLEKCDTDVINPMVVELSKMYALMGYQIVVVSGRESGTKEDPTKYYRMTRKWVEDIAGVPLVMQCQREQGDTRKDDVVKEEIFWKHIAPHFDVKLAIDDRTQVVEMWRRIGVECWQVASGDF
UniProt Q99250, whole entry: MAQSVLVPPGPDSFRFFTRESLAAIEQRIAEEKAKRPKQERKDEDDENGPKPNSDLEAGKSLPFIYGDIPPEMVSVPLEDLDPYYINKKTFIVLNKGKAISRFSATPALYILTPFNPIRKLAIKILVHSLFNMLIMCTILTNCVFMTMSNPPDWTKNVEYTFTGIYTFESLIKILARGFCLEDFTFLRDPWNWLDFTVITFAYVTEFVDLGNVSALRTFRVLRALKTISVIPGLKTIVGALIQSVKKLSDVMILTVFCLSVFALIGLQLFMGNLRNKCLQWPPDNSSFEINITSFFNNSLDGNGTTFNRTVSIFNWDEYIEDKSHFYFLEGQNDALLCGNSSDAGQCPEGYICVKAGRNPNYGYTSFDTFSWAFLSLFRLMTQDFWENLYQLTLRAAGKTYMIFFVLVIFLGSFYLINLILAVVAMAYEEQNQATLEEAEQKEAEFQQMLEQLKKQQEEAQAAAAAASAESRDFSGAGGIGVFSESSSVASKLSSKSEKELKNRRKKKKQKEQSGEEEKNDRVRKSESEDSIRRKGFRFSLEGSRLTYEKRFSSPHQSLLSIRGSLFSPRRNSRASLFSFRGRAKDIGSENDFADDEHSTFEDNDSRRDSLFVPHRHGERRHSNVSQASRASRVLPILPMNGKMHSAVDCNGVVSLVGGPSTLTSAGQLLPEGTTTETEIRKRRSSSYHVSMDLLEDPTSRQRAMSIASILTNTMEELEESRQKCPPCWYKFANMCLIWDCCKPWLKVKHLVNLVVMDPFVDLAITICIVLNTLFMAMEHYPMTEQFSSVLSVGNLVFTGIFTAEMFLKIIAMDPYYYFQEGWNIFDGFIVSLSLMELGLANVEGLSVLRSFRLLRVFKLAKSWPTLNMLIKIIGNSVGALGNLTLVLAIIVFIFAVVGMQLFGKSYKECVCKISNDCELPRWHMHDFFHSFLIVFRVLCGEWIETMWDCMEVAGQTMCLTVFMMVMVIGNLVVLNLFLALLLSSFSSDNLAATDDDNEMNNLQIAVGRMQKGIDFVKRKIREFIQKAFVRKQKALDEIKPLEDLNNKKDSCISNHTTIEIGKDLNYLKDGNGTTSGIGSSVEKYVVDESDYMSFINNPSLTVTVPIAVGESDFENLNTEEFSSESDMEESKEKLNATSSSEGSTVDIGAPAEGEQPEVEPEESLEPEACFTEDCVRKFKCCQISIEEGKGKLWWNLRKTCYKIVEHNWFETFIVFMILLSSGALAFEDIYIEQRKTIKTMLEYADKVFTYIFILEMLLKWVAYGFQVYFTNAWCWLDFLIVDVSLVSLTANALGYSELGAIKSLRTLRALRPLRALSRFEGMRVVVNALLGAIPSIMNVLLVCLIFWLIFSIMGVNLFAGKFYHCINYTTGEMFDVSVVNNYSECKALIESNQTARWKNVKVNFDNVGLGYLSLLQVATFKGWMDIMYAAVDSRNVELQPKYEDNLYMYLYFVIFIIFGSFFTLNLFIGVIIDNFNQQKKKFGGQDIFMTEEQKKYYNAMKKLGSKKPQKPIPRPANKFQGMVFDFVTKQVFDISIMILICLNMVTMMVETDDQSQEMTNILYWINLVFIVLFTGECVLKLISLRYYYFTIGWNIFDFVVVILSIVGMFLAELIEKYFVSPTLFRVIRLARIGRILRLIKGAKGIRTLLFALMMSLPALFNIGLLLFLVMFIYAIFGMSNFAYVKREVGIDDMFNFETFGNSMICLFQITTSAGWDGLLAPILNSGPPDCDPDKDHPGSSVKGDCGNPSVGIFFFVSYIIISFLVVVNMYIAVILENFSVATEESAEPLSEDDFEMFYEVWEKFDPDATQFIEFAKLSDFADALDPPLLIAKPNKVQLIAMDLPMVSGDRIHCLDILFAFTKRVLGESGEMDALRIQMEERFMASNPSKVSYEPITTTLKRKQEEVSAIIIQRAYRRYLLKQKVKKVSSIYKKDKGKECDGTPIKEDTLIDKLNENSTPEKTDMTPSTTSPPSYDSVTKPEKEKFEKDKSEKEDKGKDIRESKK
UniProt Q00959, 23-1464 limits assumed: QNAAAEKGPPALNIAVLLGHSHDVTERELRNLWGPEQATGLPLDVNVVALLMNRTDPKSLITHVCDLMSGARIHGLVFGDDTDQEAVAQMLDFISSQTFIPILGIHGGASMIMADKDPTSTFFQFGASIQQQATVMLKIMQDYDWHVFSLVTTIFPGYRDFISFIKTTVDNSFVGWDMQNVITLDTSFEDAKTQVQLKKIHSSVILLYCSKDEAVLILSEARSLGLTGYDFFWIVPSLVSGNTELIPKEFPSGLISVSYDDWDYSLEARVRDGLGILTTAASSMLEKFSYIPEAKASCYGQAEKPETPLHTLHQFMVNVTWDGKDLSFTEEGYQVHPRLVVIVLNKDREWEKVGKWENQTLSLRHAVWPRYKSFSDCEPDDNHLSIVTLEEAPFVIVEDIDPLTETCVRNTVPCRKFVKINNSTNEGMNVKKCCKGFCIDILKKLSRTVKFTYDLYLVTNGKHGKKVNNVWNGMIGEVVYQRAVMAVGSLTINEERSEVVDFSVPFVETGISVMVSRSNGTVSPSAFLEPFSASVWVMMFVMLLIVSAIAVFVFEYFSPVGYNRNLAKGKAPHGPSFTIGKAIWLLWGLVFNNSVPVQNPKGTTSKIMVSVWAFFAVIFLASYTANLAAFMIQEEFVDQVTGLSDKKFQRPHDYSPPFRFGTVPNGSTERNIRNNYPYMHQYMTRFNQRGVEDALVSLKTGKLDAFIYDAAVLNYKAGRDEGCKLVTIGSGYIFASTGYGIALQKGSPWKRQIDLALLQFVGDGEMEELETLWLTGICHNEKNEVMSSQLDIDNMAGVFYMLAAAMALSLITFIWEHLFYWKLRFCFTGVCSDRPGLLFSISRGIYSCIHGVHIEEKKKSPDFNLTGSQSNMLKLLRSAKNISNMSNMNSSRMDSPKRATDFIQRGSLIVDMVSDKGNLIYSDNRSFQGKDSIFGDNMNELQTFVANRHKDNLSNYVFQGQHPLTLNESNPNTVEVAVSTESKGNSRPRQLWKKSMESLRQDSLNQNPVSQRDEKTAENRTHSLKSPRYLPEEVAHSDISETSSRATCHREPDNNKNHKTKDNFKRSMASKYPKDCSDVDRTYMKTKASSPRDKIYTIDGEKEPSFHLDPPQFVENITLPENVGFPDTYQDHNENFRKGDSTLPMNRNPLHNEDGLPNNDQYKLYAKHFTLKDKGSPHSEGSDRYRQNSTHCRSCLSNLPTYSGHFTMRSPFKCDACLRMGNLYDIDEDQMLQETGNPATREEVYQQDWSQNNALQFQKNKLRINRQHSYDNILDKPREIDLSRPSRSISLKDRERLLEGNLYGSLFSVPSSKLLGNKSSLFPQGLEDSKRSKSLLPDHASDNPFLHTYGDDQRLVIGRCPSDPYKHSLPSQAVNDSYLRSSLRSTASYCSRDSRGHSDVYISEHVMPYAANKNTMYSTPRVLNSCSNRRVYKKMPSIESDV
UniProt P61981, whole entry: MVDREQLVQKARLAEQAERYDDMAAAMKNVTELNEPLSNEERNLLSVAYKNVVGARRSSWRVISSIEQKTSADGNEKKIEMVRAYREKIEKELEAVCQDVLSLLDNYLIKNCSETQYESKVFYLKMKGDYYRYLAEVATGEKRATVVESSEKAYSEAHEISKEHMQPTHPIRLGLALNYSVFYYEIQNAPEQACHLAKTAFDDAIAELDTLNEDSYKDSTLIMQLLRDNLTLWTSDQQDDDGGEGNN
UniProt P45983, whole entry: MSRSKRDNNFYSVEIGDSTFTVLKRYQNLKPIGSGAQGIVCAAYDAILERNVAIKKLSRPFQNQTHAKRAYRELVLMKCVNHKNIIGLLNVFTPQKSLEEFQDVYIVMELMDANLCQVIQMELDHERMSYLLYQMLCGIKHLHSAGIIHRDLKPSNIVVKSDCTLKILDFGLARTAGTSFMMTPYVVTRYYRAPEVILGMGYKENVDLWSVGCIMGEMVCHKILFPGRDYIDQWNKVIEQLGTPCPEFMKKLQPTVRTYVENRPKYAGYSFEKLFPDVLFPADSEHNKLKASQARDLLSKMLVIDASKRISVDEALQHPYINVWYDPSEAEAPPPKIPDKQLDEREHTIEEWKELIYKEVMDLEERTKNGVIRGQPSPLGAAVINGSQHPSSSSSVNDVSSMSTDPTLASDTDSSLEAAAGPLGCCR
UniProt Q3E9C0, whole entry: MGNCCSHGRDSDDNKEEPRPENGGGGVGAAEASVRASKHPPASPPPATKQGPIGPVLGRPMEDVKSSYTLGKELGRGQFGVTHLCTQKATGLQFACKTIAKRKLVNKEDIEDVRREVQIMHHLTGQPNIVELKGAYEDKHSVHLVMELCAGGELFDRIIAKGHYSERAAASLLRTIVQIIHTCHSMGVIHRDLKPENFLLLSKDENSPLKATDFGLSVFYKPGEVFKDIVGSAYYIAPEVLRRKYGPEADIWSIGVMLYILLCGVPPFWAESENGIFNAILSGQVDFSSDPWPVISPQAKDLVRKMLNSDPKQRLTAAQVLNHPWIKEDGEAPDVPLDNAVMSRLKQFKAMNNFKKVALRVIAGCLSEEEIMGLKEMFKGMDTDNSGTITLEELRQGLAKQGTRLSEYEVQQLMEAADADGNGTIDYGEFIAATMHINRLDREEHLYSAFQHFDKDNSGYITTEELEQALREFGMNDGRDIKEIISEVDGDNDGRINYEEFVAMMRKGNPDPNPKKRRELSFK
UniProt P35462, whole entry: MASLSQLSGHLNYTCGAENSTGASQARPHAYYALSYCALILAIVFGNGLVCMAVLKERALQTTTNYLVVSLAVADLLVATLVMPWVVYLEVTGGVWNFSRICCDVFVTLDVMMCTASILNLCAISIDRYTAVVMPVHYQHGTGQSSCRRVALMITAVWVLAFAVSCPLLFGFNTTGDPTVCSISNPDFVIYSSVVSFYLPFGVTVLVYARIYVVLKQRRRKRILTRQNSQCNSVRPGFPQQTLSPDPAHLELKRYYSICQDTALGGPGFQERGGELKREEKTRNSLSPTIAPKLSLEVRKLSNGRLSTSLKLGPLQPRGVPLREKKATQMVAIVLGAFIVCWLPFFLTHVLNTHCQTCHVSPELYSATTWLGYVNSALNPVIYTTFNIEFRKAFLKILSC
UniProt O15151, 23-111 limits assumed: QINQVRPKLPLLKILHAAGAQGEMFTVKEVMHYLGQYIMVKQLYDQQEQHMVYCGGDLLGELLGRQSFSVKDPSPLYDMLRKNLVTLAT
UniProt P21462, whole entry: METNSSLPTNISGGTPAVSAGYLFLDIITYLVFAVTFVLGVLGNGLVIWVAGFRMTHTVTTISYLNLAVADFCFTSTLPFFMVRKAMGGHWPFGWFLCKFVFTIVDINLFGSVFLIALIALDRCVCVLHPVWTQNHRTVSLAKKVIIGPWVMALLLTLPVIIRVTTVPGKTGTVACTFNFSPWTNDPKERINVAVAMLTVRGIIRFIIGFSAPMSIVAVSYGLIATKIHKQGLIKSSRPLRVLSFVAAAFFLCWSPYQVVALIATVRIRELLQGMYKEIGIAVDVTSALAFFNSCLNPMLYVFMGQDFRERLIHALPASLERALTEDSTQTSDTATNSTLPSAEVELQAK

`CC/C=C\C/C=C\CCC/C=C/C=C/C=C\CCCC(=O)O` has an IC50 of over 100 µM (pseT (Enterobacteria phage T4, UniProt P06855); enzyme activity, inhibitor).
`CC(=O)C12NC(C)(C)CC1(C)C(=O)C1=C2c2c(c3c4n2C(C)(C)CC2=C4C4(CC(C)(C)NC(C)(C4)C2=O)CC3(C)C)C(=O)C(C)(C)N1` (single isomer, unassigned) gave an inhibition of 32 ± 0.01% (SCN2A (Homo sapiens, UniProt Q99250); sodium current; 10 µM).
With `CCc1c(C#N)c(SC(C(N)=O)c2ccc(F)cc2)nc(N2CCC(N(C)C)CC2)c1C#N` (centres unmarked) the Dmax was 92 ± 1% (DNMT1 (Homo sapiens, UniProt P26358); degrader, Western blot; HCT-116; 1 µM, 24 h; relative to: DMSO).
The cell growth of `N#Cc1c(-c2ccc(Cl)cc2Cl)n(-c2nc(-c3ccc(Cl)cc3)c3c(NC(=O)c4ccccc4)nnc-3[nH]2)[nH]c1=O` is reported as 25.7% (SR; SRB; 10 µM).
`NC12CC3CC(F)(CC(C1)c1ccccc13)C2` — result for “V0 of IC50”: 25.4 ± 0.54 mV (Glutamate NMDA receptor; Grin1/Grin2a (Grin1/Grin2a, Rattus norvegicus, UniProt P35439+Q00959); ion current, channel blocker, whole-cell patch clamp; tsA201 cells; 10 µM, -105 to +55 mV, no Mg2+, with: 1 mM glutamate; relative to: IC50 at -65 mV).
`C=C(C)C(=O)Nc1ccc(-c2c(-c3ccc(Oc4nccc(C)n4)c(F)c3)c3c(N)ncnc3n2C)cc1` — result for “area over GR curve”: 0.991 (AN3 CA; cell growth, CellTiter-Glo; 120 h, unit not given; relative to: untreated growth rate, higher = stronger inhibition).
For `CC[C@H](C)[C@H](NC(=O)[C@@H]1CCCN1C(=O)CNC(=O)[C@H](CC(C)C)NC(=O)[C@H](COP(=O)(O)O)NC(=O)[C@H](CC(N)=O)NC(=O)[C@H](CO)NC(=O)[C@H](Cc1c[nH]cn1)NC(=O)[C@H](CCCNC(=N)N)NC(=O)[C@H](CCC(N)=O)NC(=O)[C@H](CC(C)C)NC(C)=O)C(=O)N[C@@H](Cc1ccccc1)C(=O)N[C@@H](CC(=O)O)C(N)=O`, the ΔH was -7.6 kcal/mol (YWHAG (Homo sapiens, UniProt P61981); isothermal titration calorimetry; pH 7.4, 37 °C).
The kcat of `CC(C)C[C@H](NC(=O)[C@@H](NC(=O)[C@H](CC(C)C)NC(=O)[C@H](CS)NC(=O)CNS(=O)(=O)c1cccc2c(N(C)C)cccc12)C(C)C)C(=O)O` is reported as 0.057 ± 0.017 s⁻¹ (geranylgeranyltransferase type-I (Rattus norvegicus, UniProt P53610+Q04631); substrate, fluorescence; 30 °C, GGPP 10 µM/enzyme 10 nM, with: SmgGDS-607 5 µM).
The fraction bound of `CC(C)C[C@H](NC(=O)[C@H](C)NC(=O)[C@H](CCCNC(=N)N)NC(=O)[C@H](CCCNC(=N)N)NC(=O)[C@H](CCCNC(=N)N)NC(=O)[C@H](C)NC(=O)[C@H](CC(C)C)NC(=O)[C@H](CCCNC(=N)N)NC(=O)[C@H](CO)NC(=O)[C@H](CCCCN)NC(=O)[C@H](CO)NC(=O)Cn1cc(COC(=O)[C@]2(C)C=C(C(=O)OC(C)(C)C)C(=O)CC2)nn1)C(=O)O` is reported as 0.0838 (MAPK8 (Homo sapiens, UniProt P45983); binding, competitor, fluorescence polarization; 25 µM; higher = less displacement).
With `CCOC(=O)c1c(-c2ccc(Cl)cc2Cl)n(-c2nc(-c3ccc(Cl)cc3)c3c(NC(=O)c4ccccc4)nnc-3[nH]2)[nH]c1=O` the cell growth was 4.14% (SW-620; SRB; 10 µM; relative to: untreated).
The relative phosphorylation of `CC[C@H](C)[C@H](NC(=O)[C@H](CCCNC(=N)N)NC(=O)[C@H](CO)NC(=O)[C@@H](NC(=O)[C@@H](NC(=O)[C@H](CCCCN)NC(=O)[C@@H](N)C(C)C)[C@@H](C)CC)[C@@H](C)CC)C(=O)N[C@@H](Cc1ccccc1)C(=O)N[C@@H](CO)C(=O)N[C@@H](CCC(N)=O)C(=O)N[C@@H](CCCNC(=N)N)C(=O)N[C@@H](CO)C(=O)N[C@@H](Cc1ccccc1)C(=O)N[C@@H](CCCNC(=N)N)C(=O)N[C@@H](CCCNC(=N)N)C(=O)O` is reported as 31 fold (Calcium-dependent protein kinase 34 (CPK34, Arabidopsis thaliana, UniProt Q3E9C0); peptide phosphorylation, substrate, scintillation proximity; 20 µM, 24 min, with: 10 µM ATP; relative to: no peptide control, higher = more phosphorylation).
`CCn1c2c(c3ccccc31)CCN(CCCCNC(=O)c1ccc3[nH]c4ccccc4c3c1)C2` has an inhibition of 97.1 ± 2.9% (DRD3 (Homo sapiens, UniProt P35462); binding; 10 µM).
`COc1ccc(C2=N[C@@H](c3cccc(Cl)c3)[C@@H](c3ccc(Cl)cc3)N2C(=O)N2CCNC(=O)C2)c(OC(C)C)c1` (relative stereo) has a binding stoichiometry of 1.8 ± 0.4 (Protein Mdm4 (MDM4, Homo sapiens, UniProt O15151); isothermal titration calorimetry; concentration not given, 298 K).
`CC(=O)N[C@@H](CCCNC(=N)N)C(=O)N[C@H](C(=O)N[C@@H](CC(C)C)C(=O)N[C@@H](C)C(=O)N[C@@H](C)C(=O)N[C@@H](Cc1ccc(OP(=O)(O)O)cc1)C(=O)N[C@@H](CCC(=O)O)C(=O)N[C@@H](CCC(=O)O)C(=O)N[C@H](C(=O)N[C@@H](Cc1c[nH]cn1)C(N)=O)C(C)C)[C@@H](C)O` gave a Km of 43 ± 1 µM (PTPN1; substrate, continuous UV; pH 7.4, multiply phosphorylated peptides apparent).
With `CCc1cc2c(=O)c(-c3nc4ccccc4n3C)c(C)oc2cc1OC(C)=O` the affinity ratio was over 100 fold (FPR1 (Homo sapiens, UniProt P21462); relative to: FPR1 over FPR2).
`CC(=O)NCCCC[C@H](NC(=O)[C@H](CCCCNC(C)=O)NC(=O)[C@H](Cc1c[nH]cn1)NC(=O)[C@H](CCCNC(=N)N)NC(C)=O)C(=O)Nc1ccc2c(C)cc(=O)oc2c1` has a kcat of 0.148 ± 0.016 s⁻¹ (HDAC6 (Homo sapiens, UniProt Q9UBN7); deacetylation, substrate; 25 °C, with: 10 to 50 nM enzyme).
The Km of `CC(=O)N[C@@H](CC(=O)O)C(=O)N[C@H](C(=O)N[C@@H](C)C(=O)N[C@@H](CC(=O)O)C(=O)N[C@H](C(=O)N[C@@H](Cc1ccc(OP(=O)(O)O)cc1)C(=O)N[C@@H](CC(=O)O)C(=O)N[C@@H](Cc1c[nH]c2ccccc12)C(=O)N[C@@H](CCC(=O)O)C(=O)N[C@@H](Cc1ccccc1)C(N)=O)C(C)C)[C@@H](C)O` is reported as 5.2 ± 1 µM (PTPN1; substrate, continuous UV; pH 7.4, multiply phosphorylated peptides apparent).

Repeated from above:
With `CCc1c(C#N)c(SC(C(N)=O)c2ccc(F)cc2)nc(N2CCC(N(C)C)CC2)c1C#N` (centres unmarked) the Dmax was 92 ± 1% (DNMT1 (Homo sapiens, UniProt P26358); degrader, Western blot; HCT-116; 1 µM, 24 h; relative to: DMSO).
The cell growth of `N#Cc1c(-c2ccc(Cl)cc2Cl)n(-c2nc(-c3ccc(Cl)cc3)c3c(NC(=O)c4ccccc4)nnc-3[nH]2)[nH]c1=O` is reported as 25.7% (SR; SRB; 10 µM).
`NC12CC3CC(F)(CC(C1)c1ccccc13)C2` — result for “V0 of IC50”: 25.4 ± 0.54 mV (Glutamate NMDA receptor; Grin1/Grin2a (Grin1/Grin2a, Rattus norvegicus, UniProt P35439+Q00959); ion current, channel blocker, whole-cell patch clamp; tsA201 cells; 10 µM, -105 to +55 mV, no Mg2+, with: 1 mM glutamate; relative to: IC50 at -65 mV).
